Measured values collected from several papers.
Each numbered part is a random draw from the data of one study; scales do not carry over between parts.
Chain of UniProt O15294 (whole entry, looked up): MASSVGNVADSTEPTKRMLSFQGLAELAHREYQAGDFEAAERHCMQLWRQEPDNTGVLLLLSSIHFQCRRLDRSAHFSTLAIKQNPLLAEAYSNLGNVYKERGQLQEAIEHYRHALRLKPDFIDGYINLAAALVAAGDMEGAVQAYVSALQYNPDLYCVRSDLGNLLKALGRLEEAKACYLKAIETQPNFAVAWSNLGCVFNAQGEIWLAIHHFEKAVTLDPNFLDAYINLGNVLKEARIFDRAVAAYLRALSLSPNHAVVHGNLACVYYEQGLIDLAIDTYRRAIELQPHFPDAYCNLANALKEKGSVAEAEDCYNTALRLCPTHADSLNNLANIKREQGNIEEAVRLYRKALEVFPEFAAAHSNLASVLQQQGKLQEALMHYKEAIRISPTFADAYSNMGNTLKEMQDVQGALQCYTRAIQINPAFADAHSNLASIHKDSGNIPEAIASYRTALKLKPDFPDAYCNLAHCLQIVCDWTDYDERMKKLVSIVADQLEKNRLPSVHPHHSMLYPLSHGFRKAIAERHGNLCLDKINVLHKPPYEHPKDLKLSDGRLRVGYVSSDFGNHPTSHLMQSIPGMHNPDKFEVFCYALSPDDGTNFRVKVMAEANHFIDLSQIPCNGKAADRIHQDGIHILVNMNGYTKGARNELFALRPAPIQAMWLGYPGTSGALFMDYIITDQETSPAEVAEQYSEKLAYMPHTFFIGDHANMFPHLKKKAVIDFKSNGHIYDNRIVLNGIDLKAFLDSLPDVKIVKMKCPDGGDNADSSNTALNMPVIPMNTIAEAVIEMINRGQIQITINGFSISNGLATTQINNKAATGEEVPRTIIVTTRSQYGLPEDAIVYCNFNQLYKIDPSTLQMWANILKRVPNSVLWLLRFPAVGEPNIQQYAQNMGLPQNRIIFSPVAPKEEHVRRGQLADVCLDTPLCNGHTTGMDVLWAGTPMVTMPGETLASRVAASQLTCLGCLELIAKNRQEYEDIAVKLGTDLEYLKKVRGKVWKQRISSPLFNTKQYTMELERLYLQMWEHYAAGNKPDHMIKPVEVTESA

Series 1 — technique: protein binding microarray; molecule type: double-stranded DNA, one strand shown; medium: in vitro; tested at: not given; baseline: not given; reading: higher = stronger binding
Target: Histone acetyltransferase KAT6A, winged helix 1, GST fusion (KAT6A, Homo sapiens, UniProt Q92794, residues 1-85)
Setting: 8-mer, flanks averaged, mean of 2 arrays, mostly near background
Target sequence (chain): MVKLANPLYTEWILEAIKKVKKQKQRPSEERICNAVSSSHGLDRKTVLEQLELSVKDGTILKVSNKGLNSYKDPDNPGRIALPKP
| Strand | E-score |
| --- | --- |
| GGAGCCAA | -0.158 |
| CGAGGCGC | 0.3 |
| CATACATG | -0.0859 |
| GGACTCCA | -0.0425 |
| ACCACACC | -0.00355 |
| GAACCTCA | 0.0101 |
| CGGGACAG | 0.219 |
| ATCTTTAC | 0.018 |

Series 2 — technique: RNAcompete; molecule type: RNA; medium: in vitro; tested at: 20 nM; setting: 7-mer, probes averaged, single round; baseline: mean of 7-mers; reading: higher = stronger binding
Target: PABPC1L2, full length, GST fusion (mouse, UniProt A0ABA7IW68)
Target sequence (chain): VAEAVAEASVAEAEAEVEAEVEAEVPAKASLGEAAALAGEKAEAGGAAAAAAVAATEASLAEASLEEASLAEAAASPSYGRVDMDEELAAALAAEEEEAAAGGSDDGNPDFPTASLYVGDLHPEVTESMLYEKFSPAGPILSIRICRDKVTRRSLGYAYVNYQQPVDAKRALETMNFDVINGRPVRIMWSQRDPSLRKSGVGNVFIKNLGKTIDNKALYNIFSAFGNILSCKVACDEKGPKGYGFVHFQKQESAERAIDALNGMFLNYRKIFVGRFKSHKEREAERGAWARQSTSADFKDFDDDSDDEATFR
| Strand | 7-mer Z-score |
| --- | --- |
| GUGUUGA | -0.0301 |
| UGUCAAG | -0.311 |
| AGCGGCC | 0.00254 |
| GCGCGAG | -0.307 |
| AUGGGGA | 0.437 |
| UUUACCU | -0.186 |
| GUAGCUU | -0.24 |
| UUCGACU | -0.351 |

Series 3 — technique: RNA Bind-n-Seq; molecule type: RNA; medium: in vitro; tested at: 20 nM; setting: 6-mer, flanks averaged, single round; with: 150 mM KCl; baseline: input library; reading: higher = stronger binding
Target: TAR DNA-binding protein 43, full length, His tag (TARDBP, Homo sapiens, UniProt Q13148, residues 1-414)
| Strand | 6-mer enrichment (R) |
| --- | --- |
| UAUGUG | 1.14 |
| CACACG | 0.747 |
| ACGUGG | 1.63 |
| GUUUGU | 0.957 |
| AAUACC | 0.613 |
| GAUACG | 0.908 |
| AGGUCG | 1.31 |
| CGCUUG | 0.77 |

Mixed results
| Sequence | target | effect on | technique | molecule type | baseline | endpoint | result |
| --- | --- | --- | --- | --- | --- | --- | --- |
| TMQHQTHMVNHTWWH | UDP-N-acetylglucosamine--peptide N-acetylglucosaminyltransferase 110 kDa subunit (OGT, Homo sapiens, UniProt O15294) | phage display binding | phage display panning NGS | peptide | OGT-panned over input library | log2 fold enrichment | 2.7 |

Some of these lines once more (series 2):
| Strand | 7-mer Z-score |
| --- | --- |
| GUGUUGA | -0.0301 |
| UGUCAAG | -0.311 |
